Measurements of several laboratories.
Each numbered part is a random draw from the data of one study; scales do not carry over between parts. Several values in a cell are separate wells, animals, samples, runs or records.
Sequence of UniProt P16591 (whole entry, looked up): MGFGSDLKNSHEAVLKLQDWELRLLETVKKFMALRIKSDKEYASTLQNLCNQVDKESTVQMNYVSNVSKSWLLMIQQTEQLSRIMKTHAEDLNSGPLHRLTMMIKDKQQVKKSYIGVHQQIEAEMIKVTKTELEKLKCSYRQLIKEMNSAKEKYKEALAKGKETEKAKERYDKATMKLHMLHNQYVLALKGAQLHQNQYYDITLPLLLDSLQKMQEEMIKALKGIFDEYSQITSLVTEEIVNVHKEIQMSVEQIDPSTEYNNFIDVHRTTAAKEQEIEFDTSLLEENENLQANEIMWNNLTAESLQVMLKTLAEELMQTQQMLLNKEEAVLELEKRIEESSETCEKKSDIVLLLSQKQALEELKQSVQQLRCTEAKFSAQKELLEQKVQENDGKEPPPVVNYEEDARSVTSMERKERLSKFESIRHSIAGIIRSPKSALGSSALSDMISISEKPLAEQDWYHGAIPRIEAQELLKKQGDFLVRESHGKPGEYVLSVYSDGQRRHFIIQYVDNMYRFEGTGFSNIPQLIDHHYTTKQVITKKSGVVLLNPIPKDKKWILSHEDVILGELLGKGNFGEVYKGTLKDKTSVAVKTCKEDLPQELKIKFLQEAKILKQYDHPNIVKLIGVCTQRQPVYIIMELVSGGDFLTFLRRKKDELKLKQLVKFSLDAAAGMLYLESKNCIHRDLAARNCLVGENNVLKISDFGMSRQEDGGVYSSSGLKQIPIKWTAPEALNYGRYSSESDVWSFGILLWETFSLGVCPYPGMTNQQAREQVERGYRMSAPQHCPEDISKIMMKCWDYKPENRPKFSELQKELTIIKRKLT
Sequence of UniProt P78356 (whole entry, looked up): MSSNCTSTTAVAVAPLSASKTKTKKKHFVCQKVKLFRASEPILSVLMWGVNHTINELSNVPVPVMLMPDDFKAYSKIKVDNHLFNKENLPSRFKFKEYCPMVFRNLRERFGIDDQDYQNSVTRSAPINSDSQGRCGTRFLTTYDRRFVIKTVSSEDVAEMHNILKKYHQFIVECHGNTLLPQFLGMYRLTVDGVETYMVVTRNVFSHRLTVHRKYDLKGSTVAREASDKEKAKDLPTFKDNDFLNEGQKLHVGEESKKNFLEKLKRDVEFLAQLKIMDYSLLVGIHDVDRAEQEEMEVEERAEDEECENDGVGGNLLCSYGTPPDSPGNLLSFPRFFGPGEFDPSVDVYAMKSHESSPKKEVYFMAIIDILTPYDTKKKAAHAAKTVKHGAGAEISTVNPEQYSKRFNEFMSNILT
Sequence of UniProt Q14012 (whole entry, looked up): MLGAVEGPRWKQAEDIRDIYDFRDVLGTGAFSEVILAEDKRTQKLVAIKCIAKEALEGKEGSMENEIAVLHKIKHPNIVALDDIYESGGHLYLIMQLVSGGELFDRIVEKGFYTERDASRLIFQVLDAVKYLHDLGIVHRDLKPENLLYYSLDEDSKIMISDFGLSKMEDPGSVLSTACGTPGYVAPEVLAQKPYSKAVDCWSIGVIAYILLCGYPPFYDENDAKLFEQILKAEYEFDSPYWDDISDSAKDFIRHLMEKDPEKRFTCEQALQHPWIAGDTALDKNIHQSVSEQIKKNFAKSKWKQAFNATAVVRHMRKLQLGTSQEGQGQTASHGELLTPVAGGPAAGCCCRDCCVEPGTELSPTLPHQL
Sequence of UniProt P27037 (whole entry, looked up): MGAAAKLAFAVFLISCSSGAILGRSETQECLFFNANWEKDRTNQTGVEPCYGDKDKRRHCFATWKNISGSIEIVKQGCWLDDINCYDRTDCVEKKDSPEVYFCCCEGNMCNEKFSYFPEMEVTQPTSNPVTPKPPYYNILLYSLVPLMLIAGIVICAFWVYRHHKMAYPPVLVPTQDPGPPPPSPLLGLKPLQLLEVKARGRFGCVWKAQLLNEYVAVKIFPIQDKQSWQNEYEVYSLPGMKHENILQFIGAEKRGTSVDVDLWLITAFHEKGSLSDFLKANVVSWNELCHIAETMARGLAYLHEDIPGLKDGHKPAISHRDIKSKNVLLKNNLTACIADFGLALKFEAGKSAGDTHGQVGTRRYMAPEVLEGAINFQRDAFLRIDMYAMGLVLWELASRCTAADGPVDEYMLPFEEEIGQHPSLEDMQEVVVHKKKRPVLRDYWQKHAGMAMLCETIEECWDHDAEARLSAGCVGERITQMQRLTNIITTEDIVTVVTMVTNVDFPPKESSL
Sequence of UniProt Q00526 (whole entry, looked up): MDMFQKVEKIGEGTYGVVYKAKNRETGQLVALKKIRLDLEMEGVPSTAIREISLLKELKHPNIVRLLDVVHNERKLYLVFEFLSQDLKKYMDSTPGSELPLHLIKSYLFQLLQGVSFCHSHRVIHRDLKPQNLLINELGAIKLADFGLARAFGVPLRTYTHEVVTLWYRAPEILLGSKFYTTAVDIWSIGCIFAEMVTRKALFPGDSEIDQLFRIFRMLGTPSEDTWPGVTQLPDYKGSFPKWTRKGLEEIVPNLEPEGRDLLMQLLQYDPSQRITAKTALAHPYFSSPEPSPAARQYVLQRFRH

Sample 1 — SMILES: O=c1cc(N2CCOCC2)oc2c(-c3ccccc3)cccc12; observed: enzyme activity; action: inhibitor; concentration: 0.5 µM; reference: control
| target | remaining activity [%] |
| --- | --- |
| STK25 (Homo sapiens, UniProt O00506) | 116 |
| FER (Homo sapiens, UniProt P16591) | 99.9 |
| Insulin receptor (INSR, Homo sapiens, UniProt P06213) | 104 |
| ALK (Homo sapiens, UniProt Q9UM73) | 92.3 |
| SRC (Homo sapiens, UniProt P12931) | 96.3 |
| LIM domain kinase 1 (LIMK1, Homo sapiens, UniProt P53667) | 98.6 |
| NLK (Homo sapiens, UniProt Q9UBE8) | 99.8 |
| HIPK1 (Homo sapiens, UniProt Q86Z02) | 111 |
| MARK3 (Homo sapiens, UniProt P27448) | 95.4 |
| AKT1 (Homo sapiens, UniProt P31749) | 95.7 |
| FYN (Homo sapiens, UniProt P06241) | 100 |
| ITK (Homo sapiens, UniProt Q08881) | 93.3 |
| Cyclin-dependent kinase 3, with cyclin E (CDK3, Homo sapiens, UniProt Q00526) | 89.6 |
| CDC42BPA (Homo sapiens, UniProt Q5VT25) | 104 |
| TAOK3 (Homo sapiens, UniProt Q9H2K8) | 88.2 |
| PKN1 (Homo sapiens, UniProt Q16512) | 109 |
| NEK11 (Homo sapiens, UniProt Q8NG66) | 102 |
| PASK (Homo sapiens, UniProt Q96RG2) | 90.2 |
| FGR (Homo sapiens, UniProt P09769) | 97.5 |
| PRKX (Homo sapiens, UniProt P51817) | 101 |
| MATK (Homo sapiens, UniProt P42679) | 84.6 |
| FLT4 (Homo sapiens, UniProt P35916) | 96.4 |

Sample 2 — cell line: mouse MPNST tumor cells; method: high-content immunofluorescence imaging; refers to: nuclear SOX9; concentration: 10 µM; time: 12 h; setting: mean of 2 replicates; reference: DMSO control; direction: higher = more nuclear SOX9
| Compound | nuclear SOX9 intensity |
| --- | --- |
| Cc1cccc(N(C)C(=S)Oc2ccc3ccccc3c2)c1 | 121 % of DMSO |
| Nc1nccc(-c2ccc3noc(-c4ccc(Cl)cc4)c3c2)n1 | 106 % of DMSO |
| CCOC(=O)[C@@H](C)Oc1cccc2c(=O)n(CC(=O)Nc3ccc4c(c3)OCCO4)ccc12 | 106 % of DMSO |
| Nc1ccc(-c2nc3ccc(-c4nc5ccc(N)cc5[nH]4)cc3[nH]2)cc1 | 117 % of DMSO |
| COC(=O)Nc1nc2cc(C(=O)c3ccccc3)ccc2[nH]1 | 210 % of DMSO |
| CC(=O)NC(CC(=O)O)C(=O)NC(CCC(=O)O)C(=O)O (centres unmarked) | 98.8 % of DMSO |
| O=C(O)CCC(=O)Nc1ccc(S(=O)(=O)Nc2nccs2)cc1 | 67.5 % of DMSO |
| COc1ccc2c(c1)C(C(=O)N(Cc1ccc(N(C)C)cc1)c1ccc(C(C)C)cc1)CCC2 (centres unmarked) | 102 % of DMSO |
| Cc1ccc(C(=O)COC(=O)c2cccc(NC(=O)c3ccc([N+](=O)[O-])cc3[N+](=O)[O-])c2)cc1 | 102 % of DMSO |
| O=C(Nc1ccc(Cl)nc1)c1ccc(Cl)cc1 | 111 % of DMSO |
| CC(C)(Sc1cc(C(C)(C)C)c(O)c(C(C)(C)C)c1)Sc1cc(C(C)(C)C)c(O)c(C(C)(C)C)c1 | 118 % of DMSO and 99.7 % of DMSO |

Sample 3 — concentration: 1 µM
Compound: CN([C@@H]1CCc2c(CC(=O)O)c3cc(S(C)(=O)=O)ccc3n2C1)S(=O)(=O)c1ccc(F)cc1
| target | observed | action | method | reference | remaining binding |
| --- | --- | --- | --- | --- | --- |
| PIP4K2B (Homo sapiens, UniProt P78356) | cell-free assay |  | competition with immobilised ligand |  | 59% |
| FER (Homo sapiens, UniProt P16591) | cell-free assay |  | competition with immobilised ligand |  | 100% |
| RIPK4 (Homo sapiens, UniProt P57078) | cell-free assay |  | competition with immobilised ligand |  | 75% |
| NEK6 (Homo sapiens, UniProt Q9HC98) | cell-free assay |  | competition with immobilised ligand |  | 84% |
| LYN (Homo sapiens, UniProt P07948) | cell-free assay |  | competition with immobilised ligand |  | 100% |
| CAMK1 (Homo sapiens, UniProt Q14012) | cell-free assay |  | competition with immobilised ligand |  | 80% |
| ACVR2A (Homo sapiens, UniProt P27037) | cell-free assay |  | competition with immobilised ligand |  | 100% |
| NEK4 (Homo sapiens, UniProt P51957) | cell-free assay |  | competition with immobilised ligand |  | 91% |
| MAPKAPK2 (Homo sapiens, UniProt P49137) | cell-free assay |  | competition with immobilised ligand |  | 100% |
| CDK2 (Homo sapiens, UniProt P24941) | cell-free assay |  | competition with immobilised ligand |  | 100% |
| DSTYK (Homo sapiens, UniProt Q6XUX3) | cell-free assay |  | competition with immobilised ligand |  | 77% |
| EGFR (Homo sapiens, UniProt P00533, del747-752/P753S) | cell-free assay |  | competition with immobilised ligand |  | 80% |
| EIF2AK2 (Homo sapiens, UniProt P19525) | cell-free assay |  | competition with immobilised ligand |  | 100% |
| STK39 (Homo sapiens, UniProt Q9UEW8) | cell-free assay |  | competition with immobilised ligand |  | 86% |
| HIPK3 (Homo sapiens, UniProt Q9H422) | cell-free assay |  | competition with immobilised ligand |  | 68% |
| Aurora kinase A (AURKA, Homo sapiens, UniProt O14965) | cell-free assay |  | competition with immobilised ligand |  | 100% |
| FLT3 (Homo sapiens, UniProt P36888, ITD) | cell-free assay |  | competition with immobilised ligand |  | 82% |
| SIK1 (Homo sapiens, UniProt P57059) |  | binder | KINOMEscan competition binding | DMSO | 87% |
| FLT3 (Homo sapiens, UniProt P36888, D835Y) | cell-free assay |  | competition with immobilised ligand |  | 100% |
| RET (Homo sapiens, UniProt P07949, M918T) | cell-free assay |  | competition with immobilised ligand |  | 100% |
| Tyrosine-protein kinase ABL1, phosphorylated (ABL1, Homo sapiens, UniProt P00519) | cell-free assay |  | competition with immobilised ligand |  | 74% |
| TEC (Homo sapiens, UniProt P42680) | cell-free assay |  | competition with immobilised ligand |  | 100% |
| Ribosomal protein S6 kinase alpha-3, C-terminal kinase domain (RPS6KA3, Homo sapiens, UniProt P51812) | cell-free assay |  | competition with immobilised ligand |  | 81% |
| PRKG2 (Homo sapiens, UniProt Q13237) | cell-free assay |  | competition with immobilised ligand |  | 95% |
| TNNI3K (Homo sapiens, UniProt Q59H18) | cell-free assay |  | competition with immobilised ligand |  | 100% |

Sample 4 — observed: enzyme activity; action: inhibitor; concentration: 77 µM; reference: untreated
Target: DNA polymerase theta, ATPase domain (POLQ, Homo sapiens, UniProt O75417)
Sequence of UniProt O75417 (whole entry, unmodified, looked up): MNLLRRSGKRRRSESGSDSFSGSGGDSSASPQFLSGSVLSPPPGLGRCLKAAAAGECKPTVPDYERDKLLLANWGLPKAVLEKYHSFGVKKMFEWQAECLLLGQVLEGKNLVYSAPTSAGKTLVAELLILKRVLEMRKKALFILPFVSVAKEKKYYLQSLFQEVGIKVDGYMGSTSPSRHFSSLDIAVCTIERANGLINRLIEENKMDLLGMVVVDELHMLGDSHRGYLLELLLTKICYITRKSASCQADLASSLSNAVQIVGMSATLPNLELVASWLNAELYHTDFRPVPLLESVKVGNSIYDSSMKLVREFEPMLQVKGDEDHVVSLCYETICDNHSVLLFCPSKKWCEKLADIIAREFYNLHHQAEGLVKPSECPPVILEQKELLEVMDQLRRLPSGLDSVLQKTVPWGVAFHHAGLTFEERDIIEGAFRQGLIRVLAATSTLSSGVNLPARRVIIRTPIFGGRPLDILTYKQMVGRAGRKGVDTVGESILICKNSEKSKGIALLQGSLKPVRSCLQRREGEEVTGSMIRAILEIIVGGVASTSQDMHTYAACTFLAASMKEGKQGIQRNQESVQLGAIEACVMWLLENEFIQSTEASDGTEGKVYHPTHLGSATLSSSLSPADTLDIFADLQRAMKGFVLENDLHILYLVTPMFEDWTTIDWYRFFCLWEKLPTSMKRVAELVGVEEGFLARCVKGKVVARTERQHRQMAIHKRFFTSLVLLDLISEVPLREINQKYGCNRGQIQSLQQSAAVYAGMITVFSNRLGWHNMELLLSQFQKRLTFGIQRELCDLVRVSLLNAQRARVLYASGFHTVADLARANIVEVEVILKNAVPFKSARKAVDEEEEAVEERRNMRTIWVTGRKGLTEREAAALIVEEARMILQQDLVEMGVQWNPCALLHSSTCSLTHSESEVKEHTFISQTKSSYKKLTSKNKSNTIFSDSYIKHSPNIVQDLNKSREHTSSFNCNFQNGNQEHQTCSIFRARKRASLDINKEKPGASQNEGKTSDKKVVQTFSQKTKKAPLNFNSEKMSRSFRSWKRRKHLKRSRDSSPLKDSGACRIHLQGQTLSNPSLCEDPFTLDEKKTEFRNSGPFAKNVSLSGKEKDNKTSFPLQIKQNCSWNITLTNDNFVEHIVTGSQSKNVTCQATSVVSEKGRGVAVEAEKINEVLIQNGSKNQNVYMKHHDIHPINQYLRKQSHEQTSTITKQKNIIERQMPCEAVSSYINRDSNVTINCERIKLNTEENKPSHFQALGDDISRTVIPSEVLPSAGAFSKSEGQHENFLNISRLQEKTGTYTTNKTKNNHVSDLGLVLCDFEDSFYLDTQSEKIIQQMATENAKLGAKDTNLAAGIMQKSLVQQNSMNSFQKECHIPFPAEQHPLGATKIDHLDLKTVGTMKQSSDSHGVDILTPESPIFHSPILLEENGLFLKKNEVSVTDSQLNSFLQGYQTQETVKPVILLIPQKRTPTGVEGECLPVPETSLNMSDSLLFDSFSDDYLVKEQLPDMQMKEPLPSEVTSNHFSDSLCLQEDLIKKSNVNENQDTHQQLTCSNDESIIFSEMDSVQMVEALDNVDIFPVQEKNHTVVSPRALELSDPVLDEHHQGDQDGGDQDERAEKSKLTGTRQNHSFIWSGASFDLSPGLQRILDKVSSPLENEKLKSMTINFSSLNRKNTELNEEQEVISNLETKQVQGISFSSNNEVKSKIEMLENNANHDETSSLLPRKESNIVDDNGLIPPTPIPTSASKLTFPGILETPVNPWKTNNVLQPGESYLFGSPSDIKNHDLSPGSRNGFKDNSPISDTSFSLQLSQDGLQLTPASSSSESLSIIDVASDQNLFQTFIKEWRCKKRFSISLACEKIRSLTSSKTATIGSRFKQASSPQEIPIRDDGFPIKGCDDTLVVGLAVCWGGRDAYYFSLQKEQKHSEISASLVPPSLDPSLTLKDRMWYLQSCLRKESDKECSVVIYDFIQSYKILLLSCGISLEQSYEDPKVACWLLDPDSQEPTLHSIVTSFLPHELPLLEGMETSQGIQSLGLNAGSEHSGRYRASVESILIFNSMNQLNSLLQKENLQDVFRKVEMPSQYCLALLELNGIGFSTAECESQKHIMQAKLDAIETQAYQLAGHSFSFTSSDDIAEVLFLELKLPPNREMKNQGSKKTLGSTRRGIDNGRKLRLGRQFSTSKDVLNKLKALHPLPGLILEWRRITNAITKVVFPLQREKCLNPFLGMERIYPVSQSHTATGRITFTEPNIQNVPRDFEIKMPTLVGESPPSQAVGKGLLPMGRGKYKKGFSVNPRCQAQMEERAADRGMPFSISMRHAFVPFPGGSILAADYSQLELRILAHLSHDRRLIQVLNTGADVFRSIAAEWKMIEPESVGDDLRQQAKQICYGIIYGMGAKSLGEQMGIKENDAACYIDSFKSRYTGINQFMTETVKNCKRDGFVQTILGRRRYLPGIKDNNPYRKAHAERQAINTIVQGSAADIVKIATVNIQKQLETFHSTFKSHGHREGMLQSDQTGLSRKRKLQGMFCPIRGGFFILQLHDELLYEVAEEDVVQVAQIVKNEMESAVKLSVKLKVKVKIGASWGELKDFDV
| SMILES | remaining activity |
| --- | --- |
| COc1cccc(OC)c1OCCNCC1COc2ccccc2O1 (centres unmarked) | 113% |
| CC[C@H](NC(=O)c1c(C)c(-c2ccccc2)nc2ccccc12)c1ccccc1 | 111% |
| NC(=O)c1ccc[n+]([C@@H]2O[C@H](COP(=O)([O-])OP(=O)(O)OC[C@H]3O[C@@H](n4cnc5c(N)ncnc54)[C@H](O)[C@@H]3O)[C@@H](O)[C@H]2O)c1 | 77.8% |
| CCN(CC)CCNC(=O)c1c(C)[nH]c(/C=C2\C(=O)Nc3ccc(Cl)cc32)c1C | 100% |
| O=C1c2ccccc2C(=O)c2c(NCCc3ccc(O)cc3)ccc(NCCc3ccc(O)cc3)c21 | 99.8% |
| Nc1ccc(C(=O)NCC(=O)O)cc1 | 96.3% and 110% |
| CCCCOc1cc(C(=O)NCCN(CC)CC)c2ccccc2n1 | 101% and 95.2% |
| O=c1cc(N2CCOCC2)oc2c(-c3cccc4c3sc3ccccc34)cccc12 | 88.8% |
| CC(C)c1cc(C(C)C)c(CC(=O)NS(=O)(=O)Oc2c(C(C)C)cccc2C(C)C)c(C(C)C)c1 | 83.9% |
| CO[C@H]1C[C@@H]2CC[C@@H](C)[C@@](O)(O2)C(=O)C(=O)N2CCCC[C@H]2C(=O)O[C@H]([C@H](C)C[C@@H]2CC[C@@H](OCCO)[C@H](OC)C2)CC(=O)[C@H](C)/C=C(\C)[C@@H](O)[C@@H](OC)C(=O)[C@H](C)C[C@H](C)/C=C/C=C/C=C/1C | 95.6% |
